Assay results from different studies.
Numbered parts are unrelated; each lists some results of a single study. Substitutions count along the parent as printed.

Set 1 — target: CCNA1, cyclin fold, Cln2 fusion (human); method: yeast growth competition, sequencing; matrix: yeast; notes: weak parent motif; baseline: not given; direction: higher = stronger binding
Parent: RBL1 docking peptide (human); GSAKRRLFGEDPP; partner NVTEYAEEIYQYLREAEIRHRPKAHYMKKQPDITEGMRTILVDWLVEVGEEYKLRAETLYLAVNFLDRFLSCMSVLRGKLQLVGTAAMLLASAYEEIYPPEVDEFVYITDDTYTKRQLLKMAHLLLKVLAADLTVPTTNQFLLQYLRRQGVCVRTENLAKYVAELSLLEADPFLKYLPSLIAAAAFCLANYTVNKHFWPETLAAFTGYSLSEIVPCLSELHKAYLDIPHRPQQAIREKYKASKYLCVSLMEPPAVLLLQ
For `K4E`, “normalised enrichment score” read 0.197.
`F8V` — result for “normalised enrichment score”: 0.379.
For `R6N`, “normalised enrichment score” read 0.886.
`E10P` — result for “normalised enrichment score”: 0.583.
`P12Y` — result for “normalised enrichment score”: 0.698.
`G1M` — result for “normalised enrichment score”: 0.203.
`R5E` — result for “normalised enrichment score”: 0.191.
`R6W`: “normalised enrichment score” 0.116.
`L7M` — result for “normalised enrichment score”: 0.382.
`F8D`: “normalised enrichment score” 0.512.
Under “normalised enrichment score”, `D11R` is recorded as 0.28.
For `P13M`, “normalised enrichment score” read 0.28.
Under “normalised enrichment score”, `R5A` is recorded as 0.38.
`L7H` — result for “normalised enrichment score”: 0.0923.
`P12C` — result for “normalised enrichment score”: 0.545.
Under “normalised enrichment score”, `P13W` is recorded as 0.649.
For `D11A`, “normalised enrichment score” read 0.59.

Set 2 — method: protein binding microarray; molecule type: double-stranded DNA, one strand shown; matrix: in vitro; tested at: not given; baseline: not given; direction: higher = stronger binding
Target: Histone acetyltransferase KAT6A, winged helix 2, GST fusion (KAT6A, Homo sapiens, UniProt Q92794, residues 85-181)
Notes: 8-mer, flanks averaged, mean of 2 arrays, mostly near background
Target sequence (chain): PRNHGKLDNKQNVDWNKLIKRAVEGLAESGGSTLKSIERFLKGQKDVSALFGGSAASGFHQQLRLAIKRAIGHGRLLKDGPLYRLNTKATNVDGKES
For `CCCGCTAA`, the E-score was -0.0642.
With `GTCCTTCA` the E-score was 0.0632.
`GGTTAGGA` has an E-score of -0.248.
`TCGATCAA` has an E-score of 0.0416.
With `AAAGTAAG` the E-score was -0.0769.
For `ATGCGACA`, the E-score was 0.0711.
`GACAATTA` has an E-score of 0.0406.
`CCACACAA` gave an E-score of 0.0553.
The E-score of `GGAGGTGA` is reported as 0.14.
The E-score of `GGGCGGTA` is reported as -0.0159.
With `ACGAGAGC` the E-score was 0.0807.
For `ACGCGATA`, the E-score was 0.00449.
The E-score of `CTGAAGGC` is reported as -0.0347.
With `ATCTCAAG` the E-score was 0.0143.
`CATGGAAG` gave an E-score of 0.16.
The E-score of `TACGAGAA` is reported as -0.0131.
`GCTGGCAA` gave an E-score of 0.14.
`TCCACGAA` gave an E-score of 0.208.
`CAAGCCAC` gave an E-score of -0.113.
`AAGGCGTC` has an E-score of -0.117.
For `ACCGAAGA`, the E-score was 0.0752.
For `ATAACATC`, the E-score was 0.0625.
For `AAGTGACC`, the E-score was -0.0657.
The E-score of `CTTAAGGC` is reported as -0.0398.
`ACTATACT` has an E-score of -0.0211.

Set 3 — method: protein-binding microarray; molecule type: double-stranded DNA, one strand shown; matrix: in vitro; tested at: 2540 nM top; notes: 60-bp whole probe; with: salmon DNA 0.4 mg/ml; baseline: random background probes; direction: higher = stronger binding; constant ends, left off below: GCCTAGCAC … GTCTTGATTCGCTTGACGCTGCTG
Target: Interferon regulatory factor 3, full length, phosphomimetic (IRF3, Homo sapiens, UniProt Q14653, residues 1-427, S386D/S396D/S398D/S402D/T404D/S405D)
Target sequence (chain): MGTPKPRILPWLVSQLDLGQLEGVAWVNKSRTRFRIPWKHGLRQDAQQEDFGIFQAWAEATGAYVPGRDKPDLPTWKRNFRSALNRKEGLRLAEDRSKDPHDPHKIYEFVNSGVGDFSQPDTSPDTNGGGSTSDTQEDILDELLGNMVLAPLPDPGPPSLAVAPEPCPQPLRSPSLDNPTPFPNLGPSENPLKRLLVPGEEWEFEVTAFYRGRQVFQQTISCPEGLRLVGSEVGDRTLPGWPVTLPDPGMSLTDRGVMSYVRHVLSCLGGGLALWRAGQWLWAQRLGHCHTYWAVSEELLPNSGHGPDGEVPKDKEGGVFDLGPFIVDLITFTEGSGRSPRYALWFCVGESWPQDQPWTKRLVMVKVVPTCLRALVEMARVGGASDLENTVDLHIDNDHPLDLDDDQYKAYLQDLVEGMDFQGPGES
For `TTAGACCTGGGGTTTCGATTAGTGCTA`, “fitted relative affinity” read 1 z-score.
`GACTGTTTCCTTCTCCTGACGTGCTAG`: “fitted relative affinity” 9.24 z-score.
For `GACGGACTGCTTATCCAGACGTGCTAG`, “fitted relative affinity” read -0.317 z-score.
For `TCACTTTCCTTTATGTAACTGTGCTAG`, “fitted relative affinity” read 7.75 z-score.
`TTAGGACAGGGGTATCGGTTAGTGCTA`: “fitted relative affinity” 0.0993 z-score.
`TTAGGACTGCACTATCGGTTAGTGCTA` — result for “fitted relative affinity”: -0.142 z-score.
`TAAGGTTTCGACTATCGGTTAGTGCTA`: “fitted relative affinity” 2.38 z-score.
`GACGGTTTCCTTTCCCTAACGTGCTAG`: “fitted relative affinity” 10.4 z-score.
`TGCCCTCTCCATACTTCCCAGTGCTAG`: “fitted relative affinity” 0.657 z-score.
Under “fitted relative affinity”, `GACGGTCTCGGCATCGGGACGTGCTAG` is recorded as -0.293 z-score.
For `TCAATCATTGTTTTCAGTTTGTGCTAG`, “fitted relative affinity” read 1.13 z-score.
For `TCAGCCCTCCCTGTGGGACTGTGCTAG`, “fitted relative affinity” read -0.863 z-score.
`GTAGGACTGGACTATCGGTTAGTGCTA`: “fitted relative affinity” -0.513 z-score.
`TTAGGTTTCGACATTCGGTTAGTGCTA` — result for “fitted relative affinity”: 3.1 z-score.
`TCAACTTTCTATCTCTGACTGTGCTAG`: “fitted relative affinity” 2.84 z-score.
Under “fitted relative affinity”, `GACGGTATCCTACCGCTGACGTGCTAG` is recorded as 1.79 z-score.

Set 4 — method: aptamer microarray, sandwich; molecule type: DNA with 2'F-ANA; matrix: in vitro; tested at: 200 nM; with: Cy3 exosite-II aptamer, 400 nM; direction: higher = stronger binding; oligonucleotide: GGTTGGTGTGGTTGG
Target: Prothrombin, mature alpha-thrombin (F2, Homo sapiens, UniProt P00734)
Notes: whole 15-mer aptamer, many near background
`2'F-ANA at 3 5 7 9 14` — result for “mean fluorescence intensity”: 56 a.u.
For `2'F-ANA at 1 2 5 6 7 8 13 14 15`, “mean fluorescence intensity” read 52.2 a.u.
Under “mean fluorescence intensity”, `2'F-ANA at 3 6 7 10 11 12 15` is recorded as 518 a.u.
`2'F-ANA at 1 4 7 9 12 13 14`: “mean fluorescence intensity” 52.8 a.u.
For `2'F-ANA at 1 2 4 7 8 9 10 11 13 14 15`, “mean fluorescence intensity” read 50.8 a.u.
Under “mean fluorescence intensity”, `2'F-ANA at 1 3 11` is recorded as 508 a.u.
`2'F-ANA at 1 3 7 9 10 11 12 14 15`: “mean fluorescence intensity” 63.6 a.u.
For `2'F-ANA at 1 5 6 8 10 11 15`, “mean fluorescence intensity” read 52.5 a.u.
For `2'F-ANA at 1 2 4 6 7 8 11 13 14 15`, “mean fluorescence intensity” read 53.6 a.u.
`2'F-ANA at 3 4 5 7 8 9 10 12 13 14` — result for “mean fluorescence intensity”: 54.4 a.u.
Under “mean fluorescence intensity”, `2'F-ANA at 1 9 13 14 15` is recorded as 61.5 a.u.
Under “mean fluorescence intensity”, `2'F-ANA at 1 3 7 8 9 11 14 15` is recorded as 91.6 a.u.
Under “mean fluorescence intensity”, `2'F-ANA at 3 7 9 13` is recorded as 969 a.u.
`2'F-ANA at 2 3 5 7 9 10 14 15` — result for “mean fluorescence intensity”: 80.4 a.u.
Under “mean fluorescence intensity”, `2'F-ANA at 1 2 5 7 10 11 13 14` is recorded as 46.5 a.u.
`2'F-ANA at 1 7 11 12 15` — result for “mean fluorescence intensity”: 319 a.u.
Under “mean fluorescence intensity”, `2'F-ANA at 1 2 4 8 10 11 12 14 15` is recorded as 53.1 a.u.
`2'F-ANA at 6 9 11 12 13 14 15` — result for “mean fluorescence intensity”: 168 a.u.
Under “mean fluorescence intensity”, `2'F-ANA at 1 2 4 9 10 11 13 14 15` is recorded as 45.6 a.u.
For `2'F-ANA at 1 3 6 9 13`, “mean fluorescence intensity” read 174 a.u.
